Published values pooled from the literature.
Lines come from different studies, so protocols differ.
Technique: steady-state kinetics
B1: MCAT R178G (Homo sapiens, UniProt Q8IVS2); chain GQGSQVVGMGRGLLNYPRVRELYAAARRVLGYDLLELSLHGPQETLDRTVHCQPAIFVASLAAVEKLHHLQPSVIENCVAAAGFSVGEFAALVFAGAMEFAEGLYAVKIGAEAMQEASEAVPSGMLSVLGQPQSKFNFACLEAREHCKSLGIENPVCEVSNYLFPDCRVISGHQEALRFLQKNSSKFHFRRTRMLPVSGAFHTRLMEPAVEPLTQALKAVDIKKPLVSVYSNVHAHRYRHPGHIHKLLAQQLVSPVKWEQTMHAIYERKKGRGFPQTFEVGPGRQLGAILKSCNMQAWKSYSAVDVL
B2: enzyme (Geobacillus kaustophilus, UniProt Q5L3Y1); chain MKIGVLGLQGAVREHVRAIEACGAEAVIVKKPEQLEGLDGLVLPGGESTTMRRLIDRYGLMEPLKQFAAAGKPMFGTCAGLILLAKRIVGYDEPHLGLMDITVERNSFGRQRESFEAELSIKGVGDGFVGVFIRAPHIVEAGDGVDVLATYNDRIVAARQGQFLGCSFHPELTDDHRLMQYFLNMVKEAKMASSLK
B3: NADK2 (Homo sapiens, UniProt Q4G0N4); chain DGGFRPSRVVVVAKTTRYEFEQQRYRYAELSEEDLKQLLALKGSSYSGLLERHHIHTKNVEHIIDSLRNEGIEVRLVKRREYDEETVRWADAVIAAGGDGTMLLAASKVLDRLKPVIGVNTDPERSEGHLCLPVRYTHSFPEALQKFYRGEFRWLWRQRIRLYLEGTGINPVPVDLHEQQLSLNQHNRALNIERAHDERSEASGPQLLPVRALNEVFIGESLSSRASYYEISVDDGPWEKQKSSGLNLCTGTGSKAWSFNINRVATQAVEDVLNIAKRQGNLSLPLNRELVEKVTNEYNESLLYSPEEPKILFSIREPIANRVFSSSRQRCFSSKVCVRSRCWDACMVVDGGTSFEFNDGAIASMMINKEDELRTVLLEQ
B4: carbamoyl phosphate synthetase large subunit M911E (Escherichia coli, UniProt P00968); chain PKRTDIKSILILGAGPIVIGQACEFDYSGAQACKALREEGYRVILVNSNPATIMTDPEMADATYIEPIHWEVVRKIIEKERPDAVLPTMGGQTALNCALELERQGVLEEFGVTMIGATADAIDKAEDRRRFDVAMKKIGLETARSGIAHTMEEALAVAADVGFPCIIRPSFTMGGSGGGIAYNREEFEEICARGLDLSPTKELLIDESLIGWKEYEMEVVRDKNDNCIIVCSIENFDAMGIHTGDSITVAPAQTLTDKEYQIMRNASMAVLREIGVETGGSNVQFAVNPKNGRLIVIEMNPRVSRSSALASKATGFPIAKVAAKLAVGYTLDELMNDITGGRTPASFEPSIDYVVTKIPRFNFEKFAGANDRLTTQMKSVGEVMAIGRTQQESLQKALRGLEVGATGFDPKVSLDDPEALTKIRRELKDAGADRIWYIADAFRAGLSVDGVFNLTNIDRWFLVQIEELVRLEEKVAEVGITGLNADFLRQLKRKGFADARLAKLAGVREAEIRKLRDQYDLHPVYKRVDTCAAEFATDTAYMYSTYEEECEANPSTDREKIMVLGGGPNRIGQGIEFDYCCVHASLALREDGYETIMVNCNPETVSTDYDTSDRLYFEPVTLEDVLEIVRIEKPKGVIVQYGGQTPLKLARALEAAGVPVIGTSPDAIDRAEDRERFQHAVERLKLKQPANATVTAIEMAVEKAKEIGYPLVVRPSYVLGGRAMEIVYDEADLRRYFQTAVSVSNDAPVLLDHFLDDAVEVDVDAICDGEMVLIGGIMEHIEQAGVHSGDSACSLPAYTLSQEIQDVMRQQVQKLAFELQVRGLMNVQFAVKNNEVYLIEVNPRAARTVPFVSKATGVPLAKVAARVMAGKSLAEQGVTKEVIPPYYSVKEVVLPFNKFPGVDPLLGPEERSTGEVMGVGRTFAEAFAKAQLGSNSTMKKHGRALLSVREGDKERVVDLAAKLLKQGFELDATHGTAIVLGEAGINPRLVNKVHEGRPHIQDRIKNGEYTYIINTTSGRRAIEDSRVIRRSALQYKVHYDTTLNGGFATAMALNADATEKVISVQEMHAQIK
B5: enzyme R447A (Sinorhizobium meliloti, UniProt Q92UV7); chain MTNAEVTIAVRHEPMRIAGRLVDTDDRVEVRYPWNDTVVGTVPAGRAEHAREAFAIAAAYQPKLTRYERQKILLATAEALAARKEEISDVITLELGISKADSLYEVGRAFDVFTLAGQMCIRDDGEIFSCDLTPHGKARKIFTMREPLTAISAITPFNHPLNMVAHKVAPAIATNNCVVVKPTELTPMTALLLADILYEAGLPPEMLSVVTGWPADIGMEMITNPHVDLVTFTGSVPVGKLIAANAHYKRQVLELGGNDPLIILNDLSDDDLARAADLAVAGATKNSGQRCTAVKRILCQESVADRFVPLVLERAKRLRFGDPMDRSTDLGTVIHEKAAALFEERVMRAAEEGADILYHPGRSGALLPPIVVDRVPHQSDLVLEETFGPIIPIVRVPDDDDATITLSNSTAFGLSSGVCTNDYRRMQKYIAGLKVGTVNIWEVPGYAIEMSPFGGIKDSGNGYKEGVIEAMKSFTNVKTFSLPWP
B6: enzyme A178R/D177A/M179H/P184R (Levilactobacillus brevis, UniProt Q03Q85); chain MKVTVVGCTHAGTFAIKQILAEHPDAEVTVYERNDVISFLSCGIALYLGGKVADPQGLFYSSPEELQKLGANVQMNHNVLAIDPDQKTVTVEDLTNHAQTTESYDKLVMTSGSWPIVPKIPGIDSDRVKLCKNWAHAQALIEDAKEAKRITVIGAGYIGAELAEAYSTTGHDVTLIARHARVMRKYFDADFTDVIEQDYRDHGVQLALGETVESFTDSATGLTIKTDKNSYETDLAILCIGFRPNTDLLKGKVDMAPNGAIITDDYMRSSNPDIFAAGDSAAVHYNPTHQNAYIPLATNAVRQGILVGKNLVKPTVKYMGTQSSSGLALYDRTIVSTGLTLAAAKQQGLNAEQVIVEDNYRPEFMPSTEPVLMSLVFDPDTHRILGGALMSKYDVSQSANTLSVCIQNENTIDDLAMVDMLFQPNFDRPFNYLNILAQAAQAKVAQSVNA
B7: LYS1 C205S/K99M (Saccharomyces cerevisiae, UniProt P38998); chain MAAVTLHLRAETKPLEARAALTPTTVKKLIAKGFKIYVEDSPQSTFNINEYRQAGAIIVPAGSWKTAPRDRIIIGLKEMPETDTFPLVHEHIQFAHCYMDQAGWQNVLMRFIKGHGTLYDLEFLENDQGRRVAAFGFYAGFAGAALGVRDWAFKQTHSDDEDLPAVSPYPNEKALVKDVTKDYKEALATGARKPTVLIIGALGRSGSGAIDLLHKVGIPDANILKWDIKETSRGGPFDEIPQADIFINCIYLSKPIAPFTNMEKLNNPNRRLRTVVDVSADTTNPHNPIPIYTVATVFNKPTVLVPTTAGPKLSVISIDHLPSLLPREASEFFSHDLLPSLELLPQRKTAPVWVRAKKLFDRHCARVKRSSRL

Substance | substrate | conditions | Km [µM]
B1 (MCAT R178G) | CC(C)(COP(=O)(O)OP(=O)(O)OC[C@H]1O[C@@H](n2cnc3c(N)ncnc32)[C@H](O)[C@@H]1OP(=O)(O)O)[C@@H](O)C(=O)NCCC(=O)NCCSC(=O)CC(=O)O | pH 6.8, 20 °C, labelled substrate, with: holo-ACP 20 µM | 71.2
B2 (enzyme) | NC(=O)CC[C@H](N)C(=O)O | pH 9, 70 °C | 5100
KS (Arabidopsis thaliana, UniProt Q9SAK2) | C=C1CC[C@@H]2C(C)(C)CCC[C@@]2(C)[C@@H]1CC/C(C)=C/COP(=O)(O)OP(=O)(O)O | pH 7.2, 30 °C, GGPP-derived substrate | 8
B3 (NADK2) | O=P(O)(O)OP(=O)(O)OP(=O)(O)OP(=O)(O)O | pH 8, 37 °C | 1200
B4 | Nc1ncnc2c1ncn2[C@@H]1O[C@H](COP(=O)(O)OP(=O)(O)OP(=O)(O)O)[C@@H](O)[C@H]1O | pH 7.6, KCl 100 mM, with: glutamine 10 mM, ornithine 10 mM | 1000
ALDH7A1 (Homo sapiens, UniProt P49419) | N[C@@H](CCCC=O)C(=O)O | pH 8, with: NAD+ 2.5 mM, pyrophosphate 50 mM | 517
protein I23F/S203N/S29F (Manduca sexta, UniProt Q8I8Y1) | Oc1ccc(O)cc1 | pH 7 | 53200
LovD A190T/A86V/C40A/C60N/D12G/G275S/H161Y/K26E (Aspergillus terreus) | CCC(C)(C)C(=O)SCCC(=O)OC | 25 °C, 10% DMSO, with: 2 mM MJA | 690
B5 (enzyme R447A) | NC(=O)c1ccc[n+]([C@@H]2O[C@H](COP(=O)(O)OP(=O)(O)OC[C@H]3O[C@@H](n4cnc5c(N)ncnc54)[C@H](O)[C@@H]3O)[C@@H](O)[C@H]2O)c1 | pH 7.5, 30 °C, cofactor varied | 54
B6 (enzyme A178R/D177A/M179H/P184R) | NC(=O)C1=CN([C@@H]2O[C@H](COP(=O)(O)OP(=O)(O)OC[C@H]3O[C@@H](n4cnc5c(N)ncnc54)[C@H](O)[C@@H]3O)[C@@H](O)[C@H]2O)C=CC1 | pH 7.5, 37 °C | 329
BaiA2 (Clostridium scindens, UniProt P19337) | C[C@H](CCC(=O)SCCNC(=O)CCNC(=O)[C@H](O)C(C)(C)COP(=O)(O)OP(=O)(O)OC[C@H]1O[C@@H](n2cnc3c(N)ncnc32)[C@H](O)[C@@H]1OP(=O)(O)O)[C@H]1CC[C@H]2[C@@H]3[C@H](O)C[C@@H]4C[C@H](O)CC[C@]4(C)[C@H]3CC[C@]12C | pH 8.7, 37 °C, with: NAD+ | 23
B7 (LYS1 C205S/K99M) | NCCCC[C@H](N)C(=O)O | pH 7.2, 25 °C, with: NADH and α-Kg | 99000

A few entries again:
Substance | substrate | conditions | Km [µM]
B2 (enzyme) | NC(=O)CC[C@H](N)C(=O)O | pH 9, 70 °C | 5100
